Experimental data gathered from unrelated publications.
Numbered parts are unrelated; each lists some results of a single study.

Sample 1 — method: protein-binding microarray; form: hairpin DNA; sample: in vitro; tested at: not given; reference: not given; reading: higher = stronger binding
Target: Protein C-ets-1, full length (ETS1, Homo sapiens, UniProt P14921, residues 1-441)
Setting: whole hairpin DNA, median over replicate spots
Target sequence (chain): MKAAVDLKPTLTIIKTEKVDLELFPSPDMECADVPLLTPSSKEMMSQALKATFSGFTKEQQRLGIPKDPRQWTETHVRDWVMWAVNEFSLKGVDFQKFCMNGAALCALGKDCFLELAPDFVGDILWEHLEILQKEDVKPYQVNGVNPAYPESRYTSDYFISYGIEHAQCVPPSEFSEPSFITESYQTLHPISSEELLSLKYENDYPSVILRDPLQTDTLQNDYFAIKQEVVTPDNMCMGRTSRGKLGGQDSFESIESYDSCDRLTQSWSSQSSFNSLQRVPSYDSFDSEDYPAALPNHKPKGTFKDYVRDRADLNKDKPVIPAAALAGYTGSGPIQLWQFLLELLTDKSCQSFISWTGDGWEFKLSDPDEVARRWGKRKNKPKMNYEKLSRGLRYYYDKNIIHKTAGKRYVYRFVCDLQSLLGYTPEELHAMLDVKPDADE
Oligonucleotide | median fluorescence [a.u.]
GAGGCCCGTCGGAAGTTGCCTCCTGGCAACTTCCGACGGGCCTCACACTC (5mC at 7) | 2510
GAGGCCAGACGGAAGTTGCCTCCTGGCAACTTCCGTCTGGCCTCACACTC | 4380
GAGGCCAGCCGGACGTTGCCTCCTGGCAACGTCCGGCTGGCCTCACACTC (5mC at 30) | 2240
GAGGCCCGCCGGAAGTTGCCTCCTGGCAACTTCCGGCGGGCCTCACACTC (5mC at 7) | 8560
GAGGCCGGTCGGAAGTTGCCTCCTGGCAACTTCCGACCGGCCTCACACTC (5mC at 38) | 2300
GAGGCCAGTCGGAAGCGGCCTCCTGGCCGCTTCCGACTGGCCTCACACTC (5mC at 16 28) | 1750
GAGGCCAGTCGGAAGCTGCCTCCTGGCAGCTTCCGACTGGCCTCACACTC | 1760
GAGGCCATCCGGAAGTTGCCTCCTGGCAACTTCCGGATGGCCTCACACTC | 8710

Sample 2 — method: RNAcompete; form: RNA; sample: in vitro; tested at: 20 nM; setting: 7-mer, probes averaged, single round; reference: mean of 7-mers; reading: higher = stronger binding
Target: PABPC1L2, full length, GST fusion (mouse, UniProt A0ABA7IW68)
Construct (chain): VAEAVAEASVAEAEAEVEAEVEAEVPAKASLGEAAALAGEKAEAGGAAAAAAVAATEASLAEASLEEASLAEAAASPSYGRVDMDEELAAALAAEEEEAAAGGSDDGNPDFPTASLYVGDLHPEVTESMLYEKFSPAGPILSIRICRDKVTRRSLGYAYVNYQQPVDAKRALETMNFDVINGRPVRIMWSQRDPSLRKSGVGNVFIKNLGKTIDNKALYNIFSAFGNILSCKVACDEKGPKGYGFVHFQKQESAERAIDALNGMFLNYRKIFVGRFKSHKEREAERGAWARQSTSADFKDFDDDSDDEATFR
Oligonucleotide | 7-mer Z-score
CAUGUAC | -0.126
GACUUGC | -0.186
UAGAGGU | -0.0917
UCAGGCC | -0.269
UCAGCCU | -0.382
UGUUAUA | -0.307
UAUGCGU | -0.286
AAAGGCA | 1.05

Sample 3 — method: protein-binding microarray; form: double-stranded DNA, one strand shown; sample: in vitro; tested at: not given; reading: higher = stronger binding
Target: Hepatocyte nuclear factor 3-beta, forkhead domain (FOXA2, Homo sapiens, UniProt Q9Y261, residues 142-269)
Setting: k-mer, scored over probes, only values ≥0.25
Construct (chain): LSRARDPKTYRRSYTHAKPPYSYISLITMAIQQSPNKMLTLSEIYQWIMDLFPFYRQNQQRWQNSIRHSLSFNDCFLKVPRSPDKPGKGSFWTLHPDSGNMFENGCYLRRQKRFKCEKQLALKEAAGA
Oligonucleotide | E-score
CACAACAA | 0.283
TCAAGTAA | 0.269
GTTAATCA | 0.322
ATGTAAAC | 0.378
GGTATTTA | 0.271
GTGTCATA | 0.334
GTTTTGTA | 0.297
CAACTACA | 0.254

Further values, each from its own experiment
Molecule | target | assay | system | conditions | measurement | result
IMANRAQVL | HLA class I histocompatibility antigen, A alpha chain, allele A*80:01 (Homo sapiens, UniProt P04439) | peptide-MHC binding | peptide | concentration not given | binding | inactive

Some of these lines once more (sample 3):
Oligonucleotide | E-score
GGTATTTA | 0.271
GTGTCATA | 0.334
GTTTTGTA | 0.297
CAACTACA | 0.254
